Measured values pooled from the literature.
Each line is one published result; not all experiments were run side by side. “And” joins repeats or separate records; there may be more than shown. Numbers after ± are the reported error.
LRRK2: Leucine-rich repeat serine/threonine-protein kinase 2 (LRRK2, Homo sapiens, UniProt Q5S007)
Chain of UniProt Q5S007 (whole entry, looked up): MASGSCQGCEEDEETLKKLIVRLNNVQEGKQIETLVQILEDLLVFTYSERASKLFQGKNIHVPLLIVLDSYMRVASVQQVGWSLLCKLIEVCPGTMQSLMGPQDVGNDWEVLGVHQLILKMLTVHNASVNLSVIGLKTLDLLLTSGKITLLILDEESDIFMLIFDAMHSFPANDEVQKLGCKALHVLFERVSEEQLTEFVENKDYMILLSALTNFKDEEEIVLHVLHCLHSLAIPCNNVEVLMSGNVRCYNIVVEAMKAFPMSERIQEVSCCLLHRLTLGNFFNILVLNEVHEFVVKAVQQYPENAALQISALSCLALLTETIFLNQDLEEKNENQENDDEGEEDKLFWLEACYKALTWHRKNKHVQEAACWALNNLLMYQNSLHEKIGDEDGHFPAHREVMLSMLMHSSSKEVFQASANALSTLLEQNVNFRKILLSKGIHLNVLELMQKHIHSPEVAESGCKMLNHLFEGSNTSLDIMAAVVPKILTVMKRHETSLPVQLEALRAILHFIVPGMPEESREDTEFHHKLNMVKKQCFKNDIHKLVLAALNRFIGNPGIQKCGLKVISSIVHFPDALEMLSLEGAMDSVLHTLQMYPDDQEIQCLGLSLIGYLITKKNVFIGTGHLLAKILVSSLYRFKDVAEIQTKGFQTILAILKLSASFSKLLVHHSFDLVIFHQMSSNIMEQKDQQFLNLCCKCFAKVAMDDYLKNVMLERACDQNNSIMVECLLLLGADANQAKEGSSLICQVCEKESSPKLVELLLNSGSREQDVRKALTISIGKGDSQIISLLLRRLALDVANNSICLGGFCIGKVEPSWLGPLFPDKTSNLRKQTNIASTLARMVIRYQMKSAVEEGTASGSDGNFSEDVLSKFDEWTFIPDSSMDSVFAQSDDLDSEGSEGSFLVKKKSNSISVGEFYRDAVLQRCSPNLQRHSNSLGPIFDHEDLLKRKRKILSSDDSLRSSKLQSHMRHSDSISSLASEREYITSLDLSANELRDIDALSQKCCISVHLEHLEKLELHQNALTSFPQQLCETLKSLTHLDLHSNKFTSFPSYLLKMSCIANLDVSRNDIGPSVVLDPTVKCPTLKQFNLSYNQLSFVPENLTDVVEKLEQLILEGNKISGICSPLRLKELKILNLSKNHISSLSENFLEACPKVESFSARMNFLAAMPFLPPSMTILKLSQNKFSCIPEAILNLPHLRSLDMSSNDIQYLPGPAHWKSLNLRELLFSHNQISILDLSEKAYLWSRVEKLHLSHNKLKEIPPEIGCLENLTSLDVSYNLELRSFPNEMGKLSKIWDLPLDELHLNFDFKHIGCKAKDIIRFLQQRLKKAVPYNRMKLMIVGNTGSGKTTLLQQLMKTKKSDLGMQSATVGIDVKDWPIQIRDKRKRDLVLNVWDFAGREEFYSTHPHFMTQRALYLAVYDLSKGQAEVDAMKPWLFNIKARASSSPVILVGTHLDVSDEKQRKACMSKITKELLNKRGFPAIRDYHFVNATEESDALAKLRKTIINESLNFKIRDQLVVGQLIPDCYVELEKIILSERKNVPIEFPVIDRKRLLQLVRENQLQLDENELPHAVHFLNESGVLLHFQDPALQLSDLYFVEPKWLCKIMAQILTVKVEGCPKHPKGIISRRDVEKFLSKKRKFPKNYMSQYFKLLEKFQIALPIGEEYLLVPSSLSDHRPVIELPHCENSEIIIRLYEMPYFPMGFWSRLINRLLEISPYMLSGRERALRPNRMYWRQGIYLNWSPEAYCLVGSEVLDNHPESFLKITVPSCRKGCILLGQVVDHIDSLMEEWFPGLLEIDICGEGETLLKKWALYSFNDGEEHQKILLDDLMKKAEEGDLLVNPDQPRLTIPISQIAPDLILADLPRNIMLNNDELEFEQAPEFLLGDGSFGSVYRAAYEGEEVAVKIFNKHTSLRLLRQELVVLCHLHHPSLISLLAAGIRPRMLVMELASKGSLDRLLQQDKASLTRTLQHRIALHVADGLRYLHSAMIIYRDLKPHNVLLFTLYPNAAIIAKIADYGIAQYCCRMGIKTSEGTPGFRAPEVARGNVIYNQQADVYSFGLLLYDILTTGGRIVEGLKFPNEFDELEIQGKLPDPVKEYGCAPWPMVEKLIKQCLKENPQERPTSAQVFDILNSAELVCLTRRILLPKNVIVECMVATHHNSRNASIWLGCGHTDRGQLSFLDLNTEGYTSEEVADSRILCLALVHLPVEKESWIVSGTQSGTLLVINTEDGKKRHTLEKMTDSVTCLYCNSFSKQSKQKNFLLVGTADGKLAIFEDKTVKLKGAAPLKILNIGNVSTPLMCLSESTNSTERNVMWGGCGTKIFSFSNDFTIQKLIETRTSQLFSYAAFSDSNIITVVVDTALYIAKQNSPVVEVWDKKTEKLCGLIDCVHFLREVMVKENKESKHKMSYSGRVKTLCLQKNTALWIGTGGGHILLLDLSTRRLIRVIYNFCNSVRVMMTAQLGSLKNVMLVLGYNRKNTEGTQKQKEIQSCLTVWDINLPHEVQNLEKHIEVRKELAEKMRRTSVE
UCHL1: Ubiquitin carboxyl-terminal hydrolase isozyme L1 (UCHL1, Homo sapiens, UniProt P09936)
Chain of UniProt P09936 (whole entry, looked up): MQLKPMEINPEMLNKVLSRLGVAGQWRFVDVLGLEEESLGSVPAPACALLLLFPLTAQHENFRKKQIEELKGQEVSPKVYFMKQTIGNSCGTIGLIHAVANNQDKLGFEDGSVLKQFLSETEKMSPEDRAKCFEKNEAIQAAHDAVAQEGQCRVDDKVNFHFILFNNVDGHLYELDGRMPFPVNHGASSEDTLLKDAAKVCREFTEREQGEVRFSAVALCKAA
Chain of UniProt P42336 (whole entry, unmodified, looked up): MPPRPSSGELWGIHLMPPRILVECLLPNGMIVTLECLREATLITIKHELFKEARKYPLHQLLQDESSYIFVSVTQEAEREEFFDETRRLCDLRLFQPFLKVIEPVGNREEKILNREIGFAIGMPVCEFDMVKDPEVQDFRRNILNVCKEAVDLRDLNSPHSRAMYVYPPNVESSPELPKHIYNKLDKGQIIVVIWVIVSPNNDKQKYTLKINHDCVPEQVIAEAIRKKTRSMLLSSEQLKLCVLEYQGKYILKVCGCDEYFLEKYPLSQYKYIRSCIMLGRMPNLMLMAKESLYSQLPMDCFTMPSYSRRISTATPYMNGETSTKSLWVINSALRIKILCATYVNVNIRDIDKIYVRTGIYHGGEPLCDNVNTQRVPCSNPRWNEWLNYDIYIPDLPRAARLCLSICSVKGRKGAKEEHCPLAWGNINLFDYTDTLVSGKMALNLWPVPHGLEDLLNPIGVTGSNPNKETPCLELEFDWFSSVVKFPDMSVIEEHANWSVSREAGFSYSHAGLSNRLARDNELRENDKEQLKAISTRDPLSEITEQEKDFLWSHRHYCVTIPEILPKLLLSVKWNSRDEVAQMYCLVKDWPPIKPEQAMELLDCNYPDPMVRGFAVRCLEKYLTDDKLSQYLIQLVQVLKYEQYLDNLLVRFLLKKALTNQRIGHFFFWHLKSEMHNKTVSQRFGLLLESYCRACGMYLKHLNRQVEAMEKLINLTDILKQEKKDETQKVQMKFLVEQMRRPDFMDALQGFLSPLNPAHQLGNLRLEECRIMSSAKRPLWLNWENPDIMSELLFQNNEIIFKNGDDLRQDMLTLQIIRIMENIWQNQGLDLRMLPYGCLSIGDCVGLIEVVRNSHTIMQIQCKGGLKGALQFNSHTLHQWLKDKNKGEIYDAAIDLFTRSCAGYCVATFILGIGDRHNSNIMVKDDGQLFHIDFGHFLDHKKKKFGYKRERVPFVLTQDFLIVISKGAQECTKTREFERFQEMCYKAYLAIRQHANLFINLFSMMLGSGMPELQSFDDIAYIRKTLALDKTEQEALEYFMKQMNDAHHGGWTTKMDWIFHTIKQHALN
Chain of UniProt Q07912 (whole entry, looked up): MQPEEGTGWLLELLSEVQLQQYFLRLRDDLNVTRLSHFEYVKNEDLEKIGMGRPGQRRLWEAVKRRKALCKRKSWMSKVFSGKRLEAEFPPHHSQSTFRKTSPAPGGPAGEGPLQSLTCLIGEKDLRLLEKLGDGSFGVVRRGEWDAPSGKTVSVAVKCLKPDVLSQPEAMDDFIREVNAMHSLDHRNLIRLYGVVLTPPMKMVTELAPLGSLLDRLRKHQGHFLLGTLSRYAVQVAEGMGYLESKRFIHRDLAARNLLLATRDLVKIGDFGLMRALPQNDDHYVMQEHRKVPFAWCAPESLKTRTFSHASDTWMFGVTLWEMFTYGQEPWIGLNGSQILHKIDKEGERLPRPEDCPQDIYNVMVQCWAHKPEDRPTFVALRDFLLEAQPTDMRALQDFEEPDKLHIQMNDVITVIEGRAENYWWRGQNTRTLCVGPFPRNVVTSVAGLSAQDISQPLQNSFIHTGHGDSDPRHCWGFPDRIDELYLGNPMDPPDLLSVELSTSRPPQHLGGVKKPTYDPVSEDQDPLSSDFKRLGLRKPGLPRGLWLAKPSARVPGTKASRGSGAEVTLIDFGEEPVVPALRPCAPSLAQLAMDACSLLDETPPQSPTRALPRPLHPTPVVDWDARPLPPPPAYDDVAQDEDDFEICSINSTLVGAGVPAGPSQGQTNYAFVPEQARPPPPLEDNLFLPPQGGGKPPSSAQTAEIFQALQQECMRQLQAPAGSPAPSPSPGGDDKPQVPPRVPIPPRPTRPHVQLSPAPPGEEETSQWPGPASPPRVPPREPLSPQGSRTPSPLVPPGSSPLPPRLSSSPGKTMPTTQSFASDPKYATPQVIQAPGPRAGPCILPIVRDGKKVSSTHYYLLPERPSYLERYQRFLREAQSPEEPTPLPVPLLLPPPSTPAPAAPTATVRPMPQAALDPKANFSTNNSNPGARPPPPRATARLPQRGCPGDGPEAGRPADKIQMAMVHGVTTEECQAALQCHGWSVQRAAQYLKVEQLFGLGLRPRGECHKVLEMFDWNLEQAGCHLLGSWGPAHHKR

Structure (SMILES) | target or system | assay | test system | setting | scale | measurement | value
CNc1ncc2c(/C=C/C(=O)N3CCC(OC)CC3)nn(Cc3cccc(C(F)(F)F)c3)c2n1 | LRRK2 | kinase activity, inhibitor | – | 1 µM | reference: untreated control | remaining activity | 58%
O=C(NC1CCC1)c1ccc2nc(-c3cccc(NS(=O)(=O)NCCN4CCCCC4)c3)cn2c1 | PIK3CA (Homo sapiens, UniProt P42336) | enzyme activity | – | 10 µM | – | remaining activity | 100%
Cc1c(NS(=O)(=O)c2cc(Cl)cc(Cl)c2O)cccc1-n1cn[nH]c1=O | malate dehydrogenase | enzyme activity, inhibitor | – | 200 µM, pH 7.0, 1% DMSO, aggregation counter-screen | – | remaining activity | 78%
NC/C(=C\F)COc1cccc(Cn2c(=S)[nH]c(=O)c3[nH]cnc32)c1 | Lactoperoxidase (LPO, Bos taurus, UniProt P80025) | H2O2 electrode | – | 20 µM | reference: control | remaining activity | 14.8% and 20.1% and 7.82%
Cc1cncc(CC(=O)Nc2cccc(Cl)c2O)c1 | malate dehydrogenase | enzyme activity, inhibitor | – | 200 µM, pH 7.0, 1% DMSO, aggregation counter-screen | – | remaining activity | 75%
O=C(Nc1[nH]nc(-c2ccccn2)c1C1CC1)N1CC[C@@H](Cn2cc(C(F)(F)F)cn2)C1 | Trypanosoma cruzi | reporter translation, Renilla luciferase mRNA translation | cell-free extract | 40 µM | reference: DMSO | inhibition | 9%
N#CC(=Cc1ccc(O)c([N+](=O)[O-])c1)C(=O)Nc1ccccc1C(=O)O | UCHL1 | covalent, intact protein LC-MS | – | 12.5 µM | – | labelling | 24.1%
O=C(O)c1ccc(Nc2ncc3c(n2)-c2ccc(Cl)cc2C(c2c(F)cccc2F)=NC3)cc1 | human Yes(h) | kinase activity | – | 1 µM | – | remaining activity | 20%
Cc1oc(C)c(S(=O)(=O)NCc2ccc(Br)c(F)c2F)c1C(=O)O | malate dehydrogenase | enzyme activity, inhibitor | – | 200 µM, pH 7.0, 1% DMSO, aggregation counter-screen | – | remaining activity | 91%
COc1cc(F)ccc1-c1ncnc(Nc2cccc(C[S@](C)(=N)=O)c2)n1 | ULK2 (Homo sapiens, UniProt Q8IYT8) | kinase activity | – | 10 µM, added: 10 µM ATP | – | remaining activity | 95%
C=CC(=O)N1CCC[C@@H](n2nc(-c3ccc(Oc4ccccc4)cc3)c3c(N)ncnc32)C1 | TEC (Homo sapiens, UniProt P42680) | – | – | 1 µM | – | remaining activity | 118%
COc1cc(Nc2ncc3c(n2)-c2ccc(Cl)cc2C(c2c(F)cccc2OC)=NC3)ccc1C(=O)O | CLK1 | kinase activity | – | 1 µM | – | remaining activity | 106%
O=S(=O)(NC1(CC(F)(F)F)CC1)c1cccc(Cl)c1O | malate dehydrogenase | enzyme activity, inhibitor | – | 200 µM, pH 7.0, 1% DMSO, aggregation counter-screen | – | remaining activity | 179%
Cc1csc(-n2c(C)cc(C(=O)CCl)c2C)n1 | UCHL1 | covalent, intact protein LC-MS | – | 12.5 µM | – | labelling | 31.9%
CCCOc1ccc(OC)c(F)c1C(=O)c1ccc(C(=O)N[C@@H]2CNC[C@H]2NC(=O)c2ccc3[nH]ncc3c2)cc1 | MET (Homo sapiens, UniProt P08581, D1228H) | enzyme activity | – | 10 µM | – | remaining activity | 36%
COc1ccc(F)cc1C(=O)NCc1ccc(-c2nn([C@@H](C)C(F)(F)F)c(N)c2C(N)=O)cc1 | TNK2 (Homo sapiens, UniProt Q07912) | – | – | 1000 nM, added: ATP at Km | – | remaining activity | 93.8 ± 3.4%
O=S(=O)(Nc1cc(-n2cccc2)ccc1F)c1cc(Cl)cc(Cl)c1O | malate dehydrogenase | enzyme activity, inhibitor | – | 40 µM, pH 7.0, 1% DMSO, aggregation counter-screen | – | remaining activity | 67%
Cc1cc(Nc2cc(N3CCN(C)CC3)nc(Sc3ccc(NC(=O)C4CC4)cc3)n2)[nH]n1 | LRRK2 | kinase activity, KinaseProfiler | – | 0.03 µM, species human | reference: control | remaining activity | 100%
Cc1cccc(C)c1C(=O)OCC(=O)[C@H](CCCCN)NC(=O)[C@H](CCCNC(=N)N)NC(=O)OCc1ccccc1 | Ctsc (Mus musculus, UniProt P97821) | inhibitor | – | 0.01 µM, room temperature, added: AMC substrate | – | remaining activity | 89%
O=S(=O)(NC(CCc1ccccc1)C(F)(F)F)c1cccc(Cl)c1O (stereo not drawn) | malate dehydrogenase | enzyme activity, inhibitor | – | 200 µM, pH 7.0, 1% DMSO, aggregation counter-screen | – | remaining activity | 112%
COc1cc(-c2cncc3c2CN(C)Cc2cc(N4CCNCC4)ccc2-3)cc(OC)c1OC | Phosphatidylinositol 4,5-bisphosphate 3-kinase catalytic subunit alpha isoform, with p85 alpha (PIK3CA, Homo sapiens, UniProt P42336, H1047R) | kinase activity | – | 1 µM, p110a(H1047R)/p85a)(h human, added: ATP 10 µM | reference: DMSO | remaining activity | 91%
